Measurements collected from several papers.
Each numbered part is a random draw from the data of one study; scales do not carry over between parts. Positions count from the first letter of the parent shown.

Study 1
Target: ABI1, truncated, D143A, DHFR fusion (Arabidopsis thaliana)
Method: DHFR PCA, deep sequencing
Sample: yeast
Setting: methotrexate growth selection, single substitutions
Together with: (+)-ABA 710 µM
Relative to: wild-type fitted maximum
Reading: higher = stronger binding
Endpoint: relative binding score
Starting sequence: PYL1, truncated, DHFR fusion (Arabidopsis thaliana); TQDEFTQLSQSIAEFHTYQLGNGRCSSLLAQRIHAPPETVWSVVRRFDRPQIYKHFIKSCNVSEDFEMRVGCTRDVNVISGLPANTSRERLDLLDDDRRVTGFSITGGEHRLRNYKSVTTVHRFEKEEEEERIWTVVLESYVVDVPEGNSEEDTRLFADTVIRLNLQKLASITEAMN; partner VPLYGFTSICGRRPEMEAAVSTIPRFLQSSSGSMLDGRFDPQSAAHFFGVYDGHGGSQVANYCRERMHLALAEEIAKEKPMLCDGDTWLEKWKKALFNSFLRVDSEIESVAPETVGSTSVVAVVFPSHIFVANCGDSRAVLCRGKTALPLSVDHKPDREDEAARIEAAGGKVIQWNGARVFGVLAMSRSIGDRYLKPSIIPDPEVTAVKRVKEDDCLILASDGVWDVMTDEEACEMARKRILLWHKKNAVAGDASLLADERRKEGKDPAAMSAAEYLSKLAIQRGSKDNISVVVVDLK
T101R: -0.971%
G102R: 77.6%
P50Y: -22.8%
L166H: 98.5%
V43R: 80.3%
Q7G: 107%

Study 2
Target: CCNB2, cyclin fold, Cln2 fusion (human)
Method: yeast growth competition, sequencing
Sample: yeast
Setting: weak parent motif
Relative to: not given
Reading: higher = stronger binding
Endpoint: normalised enrichment score
Starting sequence: RBL2 docking peptide (human); STTRRRLFVENDS; partner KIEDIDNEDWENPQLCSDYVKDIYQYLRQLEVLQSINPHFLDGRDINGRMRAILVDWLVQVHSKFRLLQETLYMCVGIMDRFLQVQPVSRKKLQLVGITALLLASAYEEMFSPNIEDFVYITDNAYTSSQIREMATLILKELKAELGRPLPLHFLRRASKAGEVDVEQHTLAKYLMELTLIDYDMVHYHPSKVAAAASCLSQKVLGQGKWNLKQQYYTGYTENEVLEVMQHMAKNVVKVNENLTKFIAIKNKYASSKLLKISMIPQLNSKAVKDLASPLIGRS
NTTRRRLFVENDS [S1N]: 0.53
STTRRRLFVERDS [N11R]: 0.632
STTRRRLFVENKS [D12K]: 0.802
STTQRRLFVENDS [R4Q]: -0.195
STTRRCLFVENDS [R6C]: 0.438
STTRRRLFVQNDS [E10Q]: 0.5

Study 3
Target: PABPC1L2, full length, GST fusion (mouse, UniProt A0ABA7IW68)
Method: RNAcompete
Form: RNA
Sample: in vitro
Concentration: 20 nM
Setting: 7-mer, probes averaged, single round
Relative to: mean of 7-mers
Reading: higher = stronger binding
Endpoint: 7-mer Z-score
Residues (chain): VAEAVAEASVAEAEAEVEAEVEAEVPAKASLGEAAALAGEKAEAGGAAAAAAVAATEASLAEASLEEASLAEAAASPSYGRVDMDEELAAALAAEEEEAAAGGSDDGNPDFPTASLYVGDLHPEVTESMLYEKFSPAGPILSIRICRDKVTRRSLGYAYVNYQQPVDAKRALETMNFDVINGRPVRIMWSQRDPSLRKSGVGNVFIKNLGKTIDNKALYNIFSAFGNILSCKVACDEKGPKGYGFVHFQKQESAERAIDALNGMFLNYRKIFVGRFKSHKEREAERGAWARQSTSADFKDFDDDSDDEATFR
CGACAGA: 0.0551
UAGCAAG: -0.0899
UCGUUAG: -0.345
UUGUACU: -0.351
GCGUUUA: -0.28
GACAAGC: -0.0174
AAACCAA: 1.08

Other studies, line by line
PhoQ, residues 284 288 289 292 302 303 SLCLSL
fold induction (PhoP, residues 12 14 15 18 19 NHFRA (Escherichia coli, UniProt P23836); Sort-seq, refers to: YFP reporter; E. coli; PhoQ-PhoP variant library, together with: 10 µM Mg2+; relative to: high Mg2+ state, higher = stronger signaling): 5.9

For quick reference, copied from above (study 3):
UUGUACU: -0.351
GCGUUUA: -0.28
GACAAGC: -0.0174
